# Assay results of several laboratories.
# Each numbered part is a random draw from the data of one study; scales do not carry over between parts.

# Study 1
# Target: RING finger protein unkempt homolog, zinc fingers 1-6, SBP tag (UNK, Homo sapiens, UniProt Q9C0B0, residues 30-357)
# Sequence of UniProt Q9C0B0 (30-357, looked up): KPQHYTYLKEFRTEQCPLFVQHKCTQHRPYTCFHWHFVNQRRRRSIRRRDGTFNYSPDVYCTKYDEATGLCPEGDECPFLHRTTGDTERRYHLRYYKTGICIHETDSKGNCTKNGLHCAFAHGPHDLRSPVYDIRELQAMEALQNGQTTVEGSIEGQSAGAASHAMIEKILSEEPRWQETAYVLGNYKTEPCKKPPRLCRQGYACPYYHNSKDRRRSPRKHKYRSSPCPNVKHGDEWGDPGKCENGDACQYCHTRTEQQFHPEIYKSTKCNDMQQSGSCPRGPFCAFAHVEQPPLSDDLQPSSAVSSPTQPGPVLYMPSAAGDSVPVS
# Method: RNA Bind-n-Seq
# Form: RNA
# Sample: in vitro
# Concentration: 100 nM
# Notes: RNA with constant flanks, vertebrate orthologous sites, ends assumed
# Relative to: input RNA pool
# Reading: higher = stronger binding
# Shared flanks, not repeated: GGGAGUUCUACAGUCCGACGAUC … CAACAGAGGAUUGAGCAUCA
Oligonucleotide,bound/input enrichment
GAAGUUCCCCAUUGUCACUGAGAACCACCAAAUCUGACUUUUACAUUUGGUCUCAGAAUUUAGGUUCCUGCCCUGUUGGUUUUUUCCCCUCCCUUUAAAAAAAACACCCAGUUUUCAAAA,0.463 ratio
CAGCCAACUCCCUUAUCGGCCGGGCUGCUCACAUCGCUGUCCUCGACUCUGAGAUCUUCCUGGAGAAGUUCUUCCUUGUUGCGGGCCUCAAGUUCUUUCAGUAGAACAGCGACAGAUUCA,0.493 ratio
CUACUGUAAACAACUCAGGGCAGUACUCUCGAUACCCUUACAGUAACCUAAAUCAGGGAUUAGUUAACAGUACAGGGAUGAAUCAGAACUUAGGCCUUACAAACAGUUCUCCAAUGAAUC,0.744 ratio
AUAAAAUGUGUAUCAAAUACUGGAUAUAAAAUUAAAUCAUCAUUUAGAAUAAGGUUAAUUUGUUAAGAUUAAGCUACAAAUAGGUUUCCUUAAACCAGAGAUGCACUGCCCUUGUCAGAA,0.279 ratio
AUGUCCUUGGUUACUGUGAUAUUUAAAAUAUCCACAGUGCUCACUUUUUCCAAAUGAUUCUAGUAAUUGCCUAGGAAUAUCUUCCUCUUACCUAUUAUUUAUCAAUUUUCCCAGUAUUUU,0.945 ratio
CAAGAGAAUAAUCCUGGCUGCUUUUGUGAGGCAAAGUGUCCCUUGGCACGUGGUCGGUAACAGAACCAUCAUGCCUAGGAAGUCAGUCUUUCAGUGUUCCAUUGCUUCUACACAUAAUCC,0.209 ratio
CUACUCUAUGGGCCCCGCAGAGUGGAAAUAAUGGAAGAGGAAAGUGAACAGUAAUCUACUUAGUAUUUAUGCUUAGGUGUGAAAUAAAUGUUAUUUGUUGAUCACUUCUAUAAUCCAGAG,0.289 ratio
AAAGGGUUUGUAAAGCAUUUUGCCAUUUGGAUGCGGUCUGCUGGCCCCUCCACAAUACCACGUUAAUAUGUUUUUUUUUUAAGAUGUUAGGAUCUAACUGAAUUUACUAAAAUGUAAUUA,0.555 ratio

# Study 2
# Target: RNA binding protein fox-1 homolog 2, RRM domain, GST-SBP tag (RBFOX2, Homo sapiens, UniProt O43251-10, residues 100-194)
# Method: RNA Bind-n-Seq
# Form: RNA
# Sample: in vitro
# Concentration: 365 nM
# Notes: natural RNA segment, single round, ends assumed
# Relative to: no-protein control
# Reading: higher = stronger binding
# Shared flanks, not repeated: GGGAGUUCUACAGUCCGACGAUC … UGGAAUUCUCGGGUGCCAA
# Residues (chain): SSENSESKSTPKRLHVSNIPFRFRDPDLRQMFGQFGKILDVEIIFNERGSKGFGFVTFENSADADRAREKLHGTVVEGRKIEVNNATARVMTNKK
Oligonucleotide,RBNS enrichment (R)
AGUAUGCAACCAGAACACAGGAGAAGAAAAGCUCCAGGAUCCCUGUCCCCAUCUGUCCUCUUGAUGUGAGAGAGACUCUGAGACUUCUUCCAUCGCAAUGACCUGUAUUA,1.19
UACCUAACCCUUUCUUAUUUGUAUUUGUUUUAGUAUUGUGAAGUUGUGUUAAAUAGUACUAGCUAGAAAUACAAAUUUCUGGUUAUCAUUUCUCUUCCCUGUGGCACUUG,0.448
AUUUUCUAUUUAUUAUUGUUACAAUAGGUAAUAGUUAUAGCAAUUAUUUAUUGAUUUGUAACAACUUGUUUUUAACCAAACUUUGUAGCAUGGAAAAAAUUUUCCAUCCA,0.598
CUUGAGAAGUGUAGGUCUACUGAAGAACCAUUACAAAUGGACGUCAGAGGUGUGCUGUACUUUUGAAGGUAUUUUAUUGUAUUAGGUUUAAUGAAGCUAAAAGUAGGGAA,0.513
CUGAUCCGGAAGCACGCAGCAUGUUCCCUGCUGAGCGGAGGCAGCCCACCUGUCCUGCCUCCCAGGAGCCCUUGGCCACCUCGCGCCAGCCCAAAGGCGCAGCUCUGAGU,10.3
GCCGGCGCGGGGAGGAAAGCAAAAUCCAACUAAUGGUAUAUAUUGUAGGGUACAGAAUAGAGCGUGUGCUGUUGAUAAUAUCUCUCACCCGGAUCCCUCCUCACUUGCCC,0.593
UGUAAAUGUGCCAUGCUCUGGUGGUGUGGGCAGUCAAUUAUUGUUAGAAUCUUUACCAAAGAUCUGGAGUUAGGGUAGCCUUUCUAUUUUAGUACUGAACUCCUGUGCCC,0.291
AUGCGCCACCAGGAAUCCAGUCUUGUCAUUACAUAAAUAAUCUAAAUGACACUCAGAGAGGGACAGUGCAGUUUGACAUUCAGAUAACAGCAGCAUUGGCUGCUUUUGUU,0.626

# Study 3
# Target: PABPC1L2, full length, GST fusion (mouse, UniProt A0ABA7IW68)
# Method: RNAcompete
# Form: RNA
# Sample: in vitro
# Concentration: 20 nM
# Notes: 7-mer, probes averaged, single round
# Relative to: mean of 7-mers
# Reading: higher = stronger binding
# Construct (chain): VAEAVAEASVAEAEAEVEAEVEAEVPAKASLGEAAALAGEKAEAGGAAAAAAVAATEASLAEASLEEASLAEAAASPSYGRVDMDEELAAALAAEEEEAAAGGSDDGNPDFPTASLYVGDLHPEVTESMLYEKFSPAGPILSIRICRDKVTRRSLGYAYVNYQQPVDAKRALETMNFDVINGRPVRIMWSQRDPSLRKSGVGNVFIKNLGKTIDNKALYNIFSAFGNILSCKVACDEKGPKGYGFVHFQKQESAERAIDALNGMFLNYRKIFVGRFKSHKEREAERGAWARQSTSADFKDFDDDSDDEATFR
Oligonucleotide,7-mer Z-score
UCAUGGC,0.0297
UUAUCUG,-0.296
CGCAUAU,-0.211
CACGAGG,0.119
UCCUCCC,-0.492
GCACCUG,-0.13
UGGGAUG,0.325
CGCUCGA,-0.249
GCCUGCU,-0.231
GACCGAU,0.0478
GAUACAU,-0.0663
GCACGGC,-0.121
AACCCUC,0.00254
GGGUUAG,0.0968
CAUUUUC,-0.298
CGUACUA,-0.278
UACCGAC,-0.271
ACAUGCG,-0.106
UUAGACC,-0.298

# Study 4
# Target: Histone acetyltransferase KAT6A, winged helix 2, GST fusion (KAT6A, Homo sapiens, UniProt Q92794, residues 85-181)
# Method: protein binding microarray
# Form: double-stranded DNA, one strand shown
# Sample: in vitro
# Concentration: not given
# Notes: 8-mer, flanks averaged, mean of 2 arrays, mostly near background
# Relative to: not given
# Reading: higher = stronger binding
# Target sequence (chain): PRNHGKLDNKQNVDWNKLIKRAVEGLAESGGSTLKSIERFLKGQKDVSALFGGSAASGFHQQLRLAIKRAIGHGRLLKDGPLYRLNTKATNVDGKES
Oligonucleotide,E-score
ACAGCGTC,0.057
AAAGTGTA,-0.265
AGCAGGAG,0.0585
AGAGCGGC,0.097
AATACGAT,-0.151
CTGAATGA,0.00456
CCCGGAGG,0.0741
TCCGGAGA,-0.107
AACCAGGC,0.111
CTGAGGTA,0.0715
CTTAGTAC,0.0295
CAATGTCG,-0.0939
GGGGGGTA,-0.0999
TACGTATA,-0.0596
AAACCCAG,0.119
AGGCTTAC,-0.0656
GGCGTGGA,-0.0647
AATGGGGC,-0.158
CGAAGAGC,-0.0047
ACTATGTA,-0.0892
TAAGTTCA,-0.0808
GGTACCCA,0.0745
GCGTTCAC,0.0272
GACGAGCC,0.101
ATGGACCA,-0.105

# Excerpt of the above (study 3):
Oligonucleotide,7-mer Z-score
CACGAGG,0.119
CGCAUAU,-0.211
ACAUGCG,-0.106
GAUACAU,-0.0663
CAUUUUC,-0.298
GACCGAU,0.0478
GCACCUG,-0.13
GGGUUAG,0.0968
AACCCUC,0.00254
